Measurements of several laboratories.
Each line is one published result; not all experiments were run side by side. “And” joins repeats or separate records; there may be more than shown. Numbers after ± are the reported error.

CCn1cc(C(=O)N2CCOCC2)c(=O)c2cc(NC3Cc4ccccc4C3)cnc21  Tmax (human, fed; oral suspension, 600 mg/day twice daily, day 1, median): 3 h
C#C[C@]1(COP(=O)(O)OP(=O)(O)O)O[C@@H](n2cnc3c(N)nc(F)nc32)C[C@@H]1O  Tmax (refers to: islatravir triphosphate; human, PBMC; oral, 200 mg single dose): 18 h
Cc1nc(-c2ccc(OCC(C)C)c(C#N)c2)sc1C(=O)O  Tmax (human, plasma; oral, 20 mg once daily, with: verinurad 2.5 mg): 3 h
CCCCCCCOc1ccc(CCC(N)(CO)CO)cc1C(F)(F)F.Cl  Tmax (healthy human males, plasma; oral, 0.5 mg, day 1, median): 12 h
CC(=O)N1CCC(Nc2cc(C(=O)NC[C@H](O)CN3CCc4ccccc4C3)ncn2)CC1  Tmax (human; oral, 400 mg, median): 2 h
COc1ccc([C@@H](O)c2cc(-c3ncnc4cc(N5CCOCC5)ccc34)c(F)cc2Cl)nn1  Tmax (healthy human volunteers, plasma; oral, 100 mg single dose, tablet, fed high-fat, median): 3.5 h
NC(=S)NN=Cc1ncccc1N  Tmax (human, plasma; intravenous, 50 mg, geometric mean): 1.7 h
Cc1ccc(C)c(OCCCC(C)(C)C(=O)O)c1  Tmax (human, plasma; oral, 600 mg, before lopinavir/ritonavir, geometric mean): 1.4 h
O=C(O)C[C@H](O)C[C@H](O)/C=C/c1c(C2CC2)nc2ccccc2c1-c1ccc(F)cc1  Tmax (OATP1B1/1B3 humanized mouse, plasma; oral, 5 mg/kg, with: rifampin 20 mg/kg oral): 0.4 h
CC(C)(C(=O)NC1C2CC3CC1CC(C(N)=O)(C3)C2)N1CCN(c2ccc(C(F)(F)F)cn2)CC1 (centres unmarked)  Tmax (human, plasma; 1 mg once daily, 5 days, median): 2.5 h
CC1(C)CC[C@]2(NC(=O)C(C)(F)F)CC[C@]3(C)[C@H](C(=O)C=C4[C@@]5(C)C=C(C#N)C(=O)C(C)(C)[C@@H]5CC[C@]43C)[C@@H]2C1  Tmax (median; human, plasma; oral, 150 mg single dose, given alone): 14.3 h
COc1ncc(-c2nc3c(n2C(C)C)[C@H](c2ccc(Cl)cc2)N(c2cc(Cl)cn(C)c2=O)C3=O)c(OC)n1  Tmax (LC-MS/MS, noncompartmental; human, plasma; oral, 120 mg, C1D1, high-dose, median): 2.1 h
CCNCCCNC/C=C\CNCCCNCC  Tmax (LC-MS/MS; human cancer patients, plasma; intravenous infusion 60 min, 150 mg, median, cycle 1): 0.5 h
CC(C)[C@H](N)C(=O)NCCCS(=O)(=O)O  Tmax (median; human, plasma; oral, 340 mg once daily days 8-14, day 14, fasted, capsule): 0.5 h
CN(CC#N)C(=O)C[C@H](Nc1nc2ccccc2[nH]1)c1cccc(C(F)(F)F)c1  Tmax (human; intravenous infusion, 1.5 mg/kg, 1 mg/mL formulation): 0.49 ± 0.01 h
C[C@H](Oc1ccc(Br)cc1-c1ccon1)C(=O)O  Tmax (healthy male humans, plasma; oral, 400 mg twice daily, day 1, median): 8 h
Cc1cc(C)c(CNC(=O)c2cc(Cl)c3c(c2C)O[C@@](C)([C@H]2CC[C@H](N(C)C)CC2)O3)c(=O)[nH]1  Tmax (human, NHL patients, plasma; oral, 200 mg/day, cycle 1 day 15, once daily): 2.48 h
CCNCc1cc(Nc2ccnc3cc(Cl)ccc23)ccc1O  Tmax (human, both sexes, plasma; oral, dose not given, non-fixed combination): 1.65 h
CC(=O)N(C)[C@H]1CCN(C(=O)c2cnc3c(c2)C[C@](C)(c2ccc(F)cc2)N3)C1  Tmax (human, male, plasma; oral, 60 mg once daily, median): 1.13 h
Cc1noc(C)c1-c1cc(C(O)(c2ccccn2)c2ccccn2)c2nc(C3CC3)[nH]c2c1  Tmax (human patients, plasma; oral, 4 mg, cycle 1 day 8, monotherapy): 0.9 h
Cc1cc(C)c(CNC(=O)c2cc(Cl)c3c(c2C)O[C@@](C)([C@H]2CC[C@H](N(C)C)CC2)O3)c(=O)[nH]1  Tmax (median; healthy male humans, plasma; oral, 25 mg, day 12, with: fluconazole): 4 h
O=C1CC[C@H](N2Cc3cc(N4CCN(CC5CCN(c6ccc([C@@H]7c8ccc(O)cc8CC[C@@H]7c7ccccc7)cc6)CC5)CC4)ccc3C2=O)C(=O)N1  Tmax (human, plasma; oral, 200 mg, with: dabigatran etexilate 75 mg): 3.5 h
NS(=O)(=O)OC[C@@H]1C[C@@H](n2ccc3c(N[C@H]4CCc5ccccc54)ncnc32)C[C@@H]1O  Tmax (LC-MS/MS, non-compartmental; human, plasma; intravenous, all dose levels, cycle 1 day 1, median): 1.05 h
C#C[C@]1(COP(=O)(O)O)O[C@@H](n2cnc3c(N)nc(F)nc32)C[C@@H]1O  Tmax (refers to: islatravir triphosphate; human, PBMC; oral, 200 mg single dose): 6 h
NC(=O)c1[nH]cnc1N  Tmax (human patients, plasma; IV infusion over 1 h, 1000 mg/m^2 DTIC, cycle 2 day 1, co-administered with co-drug): 1.33 h
N[C@](CO)(CCc1ccc(Sc2cccc(OCc3ccccc3)c2)cc1Cl)COP(=O)(O)O  Tmax (human fasted, blood; 3 mg MOC, MOC given alone): 12 h
CC(C)NC(=O)COc1cccc(-c2nc(Nc3ccc4[nH]ncc4c3)c3ccccc3n2)c1  Tmax (human male, plasma; oral, 200 mg, day 3, fed, alone, median): 2 h
C[C@@H](Nc1cc(F)cc(F)c1)c1cc(C(=O)N(C)C)cc2c(=O)cc(N3CCOCC3)oc12  Tmax (human; oral, 180 mg twice daily, day 1, 5:2 schedule, single dose, range): 1 to 26.2 h
Fc1ccc([C@@H]2CCNC[C@H]2COc2ccc3c(c2)OCO3)cc1  Tmax (human, all CYP2D6 genotypes; oral, 20 mg, steady state, geometric mean): 4.3 h
C[C@@H](c1ccc2nccn2c1)n1nnc2ncc(-c3cnn(C)c3)nc21  Tmax (human, plasma; oral, cycle 1 day 1, single dose, all, median): 2.23 h
COc1cc(C(=O)NC2CCN(C)CC2)c(F)cc1Nc1ncc(C(F)(F)F)c(Oc2cccc3c2C(=O)N(C)C3)n1  Tmax (human patients, plasma; oral, 25 mg single dose, median): 2 h
Cc1cn(C(=O)c2c(-c3c(Cl)cc(Cl)cc3Cl)noc2C(C)(C)F)c2cccc(/C=C/C(=O)O)c12  Tmax (human patients; 1000 mg bid, cycle 1 day 1): 3.98 h
Cn1c(=O)oc2ccc(-c3ccc(C[C@@H](C#N)NC(=O)[C@@H]4CNCCCO4)cc3)cc21  Tmax (human, plasma; oral, 25 mg single): ≤ 3 h
Cc1ccc(NC(=O)c2ccc(CN3CCN(C)CC3)cc2)cc1Nc1nccc(-c2cncc(-c3oncc3C)c2)n1  Tmax (healthy human volunteers, plasma; oral, 200 mg/day, multiple ascending dose, steady state): 5 ± 1.7 h
CN(C)C(=O)c1cc2cnc(Nc3ccc(N4CCNCC4)cn3)nc2n1C1CCCC1  Tmax (human, end-stage renal disease, plasma; oral, 400 mg, single dose, median): 2.98 h
CC1(COc2ccc3c(c2)ncn3-c2ccc3cccc(N4CCC(N)CC4)c3n2)COC1  Tmax (human patients, recurrent/progressive HGG or DIPG, serum; oral, 130 mg/m^2, day 28, median): 3 h
CCOc1c([C@H](C)n2nc(C)c3c(N)ncnc32)cc(Cl)c(F)c1[C@@H]1CNC(=O)C1  Tmax (human patients, Hodgkin lymphoma, plasma; oral, 20 mg, day 15, monotherapy): 0.5 h
Cc1cc(-c2nnc(N)nc2-c2ccc(F)cc2)cc(Cl)n1  Tmax (human patients, plasma; oral, 150 mg capsule once daily, multiple doses, median): 3 h
Cc1cc(-c2nccc3c2ccn3CC(=O)Nc2ccc(-c3cnccn3)cn2)ccn1  Tmax (human, plasma; oral, 15 mg once daily, day 1, median): 1 h
COc1cc(N2CCC(N3CCN(C)CC3)CC2)ccc1Nc1ncnc(Nc2ccccc2S(=O)(=O)C(C)C)n1  Tmax (human, dose expansion arm, plasma; oral, 200 mg, day 1, mean): 2.64 h
COc1nnc2ccc(N3CCC(c4ccc(OCCN5CCN(C)C(=O)[C@H]5C)cc4)CC3)nn12  Tmax (human, plasma; oral, 40 mg once daily, multiple dose, monotherapy): 1.05 h
CC(C)c1nc(N(C)S(C)(=O)=O)nc(-c2ccc(F)cc2)c1/C=C/[C@@H](O)C[C@@H](O)CC(=O)O  Tmax (healthy human subjects, plasma; oral, 10 mg, median, with: none): 3.01 h
C#C[C@]1(O)CC[C@H]2[C@@H]3CCc4cc(O)ccc4[C@H]3CC[C@@]21C  Tmax (human): 3 h
O=C(c1cc(Cc2n[nH]c(=O)c3ccccc23)ccc1F)N1CCN(C(=O)C2CC2)CC1  Tmax (human, plasma; oral, 25 mg, cycle 1 day 0, dose level -1): 1 h
CCOc1cc([C@@H](CS(C)(=O)=O)N2C(=O)c3cccc(NC(C)=O)c3C2=O)ccc1OC  Tmax (healthy humans, plasma; oral, 30 mg): 2 h
Cn1nnc2c(C(N)=O)ncn2c1=O  Tmax (human patients, plasma; oral, 20 mg/m2, day 5, dose level DL2, median, with: talazoparib 400 µg/m2): 2 h
CC(=O)Oc1ccccc1C(=O)O  Tmax (human, both sexes, plasma; oral, 650 mg, median, with: alcohol): 1.5 h
CC(C)c1nc(N(C)S(C)(=O)=O)nc(-c2ccc(F)cc2)c1/C=C/[C@@H](O)C[C@@H](O)CC(=O)O  Tmax (human, plasma; oral, 20 mg, day 2, median, alone): 5 h
Cn1ncnc1[C@H]1c2n[nH]c(=O)c3cc(F)cc(c23)N[C@@H]1c1ccc(F)cc1  Tmax (human patients, plasma; oral, 600 µg/m2 twice daily, day 1, monotherapy, dose level DL6, median): 1 h
N#Cc1cc(NC(=O)[C@H]2c3ccccc3C(=O)N(CC(F)(F)F)[C@@H]2c2cccnc2)ccc1F  Tmax (human, plasma; oral, 600 mg, median): 1.5 h
CC1=C(c2cccc(O)c2)[C@H](c2ccc(OCCN3CC(CF)C3)cc2)Oc2ccc(O)cc21  Tmax (human; oral, 600 mg single dose, median): 3 h
Cc1ncnc2c1ccn2[C@@H]1C[C@H](Oc2cc(C(F)F)c(F)c3c2CNCC3)[C@@H](O)[C@H]1O  Tmax (human; oral, 2 mg twice daily): 2.2 h and 1 h
CC(F)(F)c1cc(F)ccc1-c1sc2cc(O)ccc2c1Oc1ccc(/C=C/C(=O)O)cc1  Tmax (human, serum; oral, 450 mg once daily, cycle 1 day 28, fasted, median): 2 h

A few entries again:
Cc1nc(-c2ccc(OCC(C)C)c(C#N)c2)sc1C(=O)O  Tmax (human, plasma; oral, 20 mg once daily, with: verinurad 2.5 mg): 3 h
Cc1cc(-c2nccc3c2ccn3CC(=O)Nc2ccc(-c3cnccn3)cn2)ccn1  Tmax (human, plasma; oral, 15 mg once daily, day 1, median): 1 h
Cn1nnc2c(C(N)=O)ncn2c1=O  Tmax (human patients, plasma; oral, 20 mg/m2, day 5, dose level DL2, median, with: talazoparib 400 µg/m2): 2 h
CC(C)[C@H](N)C(=O)NCCCS(=O)(=O)O  Tmax (median; human, plasma; oral, 340 mg once daily days 8-14, day 14, fasted, capsule): 0.5 h
Cc1cc(C)c(CNC(=O)c2cc(Cl)c3c(c2C)O[C@@](C)([C@H]2CC[C@H](N(C)C)CC2)O3)c(=O)[nH]1  Tmax (human, NHL patients, plasma; oral, 200 mg/day, cycle 1 day 15, once daily): 2.48 h
CC(=O)N1CCC(Nc2cc(C(=O)NC[C@H](O)CN3CCc4ccccc4C3)ncn2)CC1  Tmax (human; oral, 400 mg, median): 2 h
